Results from different studies.
Compare with care: the assays were run in different laboratories. ± gives the spread as reported.
Chain of UniProt P0DMV8 (whole entry, looked up): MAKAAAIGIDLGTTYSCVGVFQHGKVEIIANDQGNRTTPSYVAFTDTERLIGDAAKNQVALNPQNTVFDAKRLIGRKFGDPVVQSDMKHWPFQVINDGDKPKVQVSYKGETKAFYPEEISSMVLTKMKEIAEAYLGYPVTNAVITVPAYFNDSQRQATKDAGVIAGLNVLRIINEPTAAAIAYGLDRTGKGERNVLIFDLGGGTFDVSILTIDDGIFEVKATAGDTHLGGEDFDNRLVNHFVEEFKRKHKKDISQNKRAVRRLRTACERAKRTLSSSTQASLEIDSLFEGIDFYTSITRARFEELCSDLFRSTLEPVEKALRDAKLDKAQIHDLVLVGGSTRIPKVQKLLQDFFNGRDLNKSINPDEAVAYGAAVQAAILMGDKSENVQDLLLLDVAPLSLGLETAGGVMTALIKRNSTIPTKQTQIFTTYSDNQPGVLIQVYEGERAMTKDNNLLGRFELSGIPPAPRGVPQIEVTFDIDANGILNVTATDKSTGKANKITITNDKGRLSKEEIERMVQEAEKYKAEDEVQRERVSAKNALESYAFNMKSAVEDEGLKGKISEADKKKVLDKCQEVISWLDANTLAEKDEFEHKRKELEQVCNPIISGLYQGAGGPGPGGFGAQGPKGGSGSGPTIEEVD
Chain of UniProt O60285 (whole entry, looked up): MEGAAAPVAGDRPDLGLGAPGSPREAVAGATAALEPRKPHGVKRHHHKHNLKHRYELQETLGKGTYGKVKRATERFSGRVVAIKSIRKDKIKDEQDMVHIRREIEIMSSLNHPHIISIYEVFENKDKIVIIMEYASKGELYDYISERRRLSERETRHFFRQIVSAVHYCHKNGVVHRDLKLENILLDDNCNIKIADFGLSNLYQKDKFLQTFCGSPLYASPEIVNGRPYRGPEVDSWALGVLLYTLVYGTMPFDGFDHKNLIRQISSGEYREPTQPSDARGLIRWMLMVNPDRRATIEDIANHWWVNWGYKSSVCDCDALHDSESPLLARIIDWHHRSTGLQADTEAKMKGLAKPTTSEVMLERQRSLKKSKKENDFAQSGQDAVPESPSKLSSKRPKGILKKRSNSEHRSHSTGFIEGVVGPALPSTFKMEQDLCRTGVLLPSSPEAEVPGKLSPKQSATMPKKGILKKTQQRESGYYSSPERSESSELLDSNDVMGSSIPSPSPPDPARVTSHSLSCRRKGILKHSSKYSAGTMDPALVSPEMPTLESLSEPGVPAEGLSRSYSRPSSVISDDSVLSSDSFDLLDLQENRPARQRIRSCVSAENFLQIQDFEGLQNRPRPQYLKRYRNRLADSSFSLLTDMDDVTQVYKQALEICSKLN
Chain of UniProt P50552 (whole entry, looked up): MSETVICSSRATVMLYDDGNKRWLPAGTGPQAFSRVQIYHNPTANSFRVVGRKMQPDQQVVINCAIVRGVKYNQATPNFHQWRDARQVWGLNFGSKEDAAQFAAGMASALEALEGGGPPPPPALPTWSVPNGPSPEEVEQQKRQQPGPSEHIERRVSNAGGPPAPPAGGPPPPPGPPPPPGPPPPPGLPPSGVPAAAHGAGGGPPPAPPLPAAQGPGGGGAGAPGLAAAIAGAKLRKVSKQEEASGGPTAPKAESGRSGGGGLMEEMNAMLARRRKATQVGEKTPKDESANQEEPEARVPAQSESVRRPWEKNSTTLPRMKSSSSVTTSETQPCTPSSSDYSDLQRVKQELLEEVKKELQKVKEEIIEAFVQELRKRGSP
Chain of UniProt Q08460 (whole entry, looked up): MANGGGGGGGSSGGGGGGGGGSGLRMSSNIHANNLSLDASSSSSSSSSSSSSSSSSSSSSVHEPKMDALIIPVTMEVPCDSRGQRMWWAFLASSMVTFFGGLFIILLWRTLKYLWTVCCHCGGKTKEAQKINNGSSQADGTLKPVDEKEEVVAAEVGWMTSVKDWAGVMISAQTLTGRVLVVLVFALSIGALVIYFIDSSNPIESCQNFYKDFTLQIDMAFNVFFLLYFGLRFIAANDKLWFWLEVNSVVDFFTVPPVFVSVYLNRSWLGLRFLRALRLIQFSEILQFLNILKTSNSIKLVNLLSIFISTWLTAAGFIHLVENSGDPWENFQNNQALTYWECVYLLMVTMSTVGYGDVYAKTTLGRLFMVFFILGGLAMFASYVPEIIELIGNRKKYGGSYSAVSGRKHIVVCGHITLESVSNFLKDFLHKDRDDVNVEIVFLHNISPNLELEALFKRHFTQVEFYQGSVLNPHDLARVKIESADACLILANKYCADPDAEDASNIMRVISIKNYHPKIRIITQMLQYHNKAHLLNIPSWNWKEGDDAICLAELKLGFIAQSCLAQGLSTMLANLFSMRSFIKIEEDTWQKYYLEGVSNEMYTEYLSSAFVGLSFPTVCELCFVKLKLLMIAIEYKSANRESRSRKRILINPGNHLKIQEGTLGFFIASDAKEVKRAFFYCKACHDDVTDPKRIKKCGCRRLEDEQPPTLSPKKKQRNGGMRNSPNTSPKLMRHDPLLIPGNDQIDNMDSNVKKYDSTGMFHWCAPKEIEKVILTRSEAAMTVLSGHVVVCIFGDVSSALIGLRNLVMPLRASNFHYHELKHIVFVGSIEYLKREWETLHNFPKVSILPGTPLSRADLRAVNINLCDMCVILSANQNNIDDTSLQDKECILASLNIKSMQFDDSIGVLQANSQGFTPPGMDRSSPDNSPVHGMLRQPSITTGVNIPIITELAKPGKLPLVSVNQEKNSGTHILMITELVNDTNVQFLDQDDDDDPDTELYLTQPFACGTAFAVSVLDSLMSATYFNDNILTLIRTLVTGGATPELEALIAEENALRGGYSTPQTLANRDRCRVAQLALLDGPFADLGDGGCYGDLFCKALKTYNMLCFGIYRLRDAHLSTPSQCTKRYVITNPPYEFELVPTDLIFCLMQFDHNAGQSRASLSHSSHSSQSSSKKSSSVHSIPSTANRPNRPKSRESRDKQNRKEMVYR
Chain of UniProt Q9VK33 (whole entry, looked up): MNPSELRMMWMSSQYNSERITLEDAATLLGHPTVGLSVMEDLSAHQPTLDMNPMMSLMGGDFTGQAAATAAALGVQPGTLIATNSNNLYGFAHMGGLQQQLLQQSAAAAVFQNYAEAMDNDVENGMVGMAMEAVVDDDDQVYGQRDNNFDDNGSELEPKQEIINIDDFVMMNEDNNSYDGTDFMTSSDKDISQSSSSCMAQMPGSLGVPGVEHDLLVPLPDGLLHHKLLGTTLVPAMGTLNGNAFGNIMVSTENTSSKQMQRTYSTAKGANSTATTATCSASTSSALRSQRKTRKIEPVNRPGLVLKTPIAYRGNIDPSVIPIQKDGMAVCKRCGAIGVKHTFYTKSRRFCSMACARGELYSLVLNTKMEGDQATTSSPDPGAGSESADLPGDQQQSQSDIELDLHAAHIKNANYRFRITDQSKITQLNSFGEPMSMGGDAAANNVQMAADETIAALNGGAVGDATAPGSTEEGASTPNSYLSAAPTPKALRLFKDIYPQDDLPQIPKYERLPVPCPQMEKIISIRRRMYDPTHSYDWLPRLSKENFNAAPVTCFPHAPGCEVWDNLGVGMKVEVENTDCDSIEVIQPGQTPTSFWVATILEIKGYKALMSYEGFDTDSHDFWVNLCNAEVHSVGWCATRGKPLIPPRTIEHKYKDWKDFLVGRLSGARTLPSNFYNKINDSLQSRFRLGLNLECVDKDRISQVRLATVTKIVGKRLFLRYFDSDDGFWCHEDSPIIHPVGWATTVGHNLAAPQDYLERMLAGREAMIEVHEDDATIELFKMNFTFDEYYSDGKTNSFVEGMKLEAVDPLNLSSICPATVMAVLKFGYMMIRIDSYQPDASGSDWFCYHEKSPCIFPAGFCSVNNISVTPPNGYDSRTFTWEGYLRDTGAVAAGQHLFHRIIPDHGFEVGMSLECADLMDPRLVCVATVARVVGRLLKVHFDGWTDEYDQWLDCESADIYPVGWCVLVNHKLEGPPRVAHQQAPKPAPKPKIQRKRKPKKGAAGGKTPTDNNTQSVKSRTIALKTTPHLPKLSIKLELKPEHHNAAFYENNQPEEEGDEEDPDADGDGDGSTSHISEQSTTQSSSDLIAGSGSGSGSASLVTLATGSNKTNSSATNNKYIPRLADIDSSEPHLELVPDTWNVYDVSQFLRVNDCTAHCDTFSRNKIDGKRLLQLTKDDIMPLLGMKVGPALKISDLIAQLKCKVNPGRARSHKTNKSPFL
Chain of UniProt P10415 (whole entry, looked up): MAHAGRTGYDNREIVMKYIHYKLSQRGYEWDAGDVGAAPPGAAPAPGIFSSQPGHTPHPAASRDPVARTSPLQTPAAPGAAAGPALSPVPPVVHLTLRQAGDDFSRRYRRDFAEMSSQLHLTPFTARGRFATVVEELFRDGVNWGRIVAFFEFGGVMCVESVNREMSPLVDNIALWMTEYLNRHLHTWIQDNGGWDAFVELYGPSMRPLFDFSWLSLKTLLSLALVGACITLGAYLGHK

`CC[C@@H](C)[C@@H](NC(=O)[C@@H](CCC(N)=O)NC(=O)[C@H](NC(=O)[C@H]1CCCN1C(=O)[C@H](NC(=O)[C@@H](CO)NC(=O)[C@@H](Cc1ccccc1)NC(=O)[C@H]1CCCN1C(=O)[C@@H](CCC(N)=O)NC(=O)[C@H](N)CCSC)[C@H](C)CC)C(C)C)C(=O)N[C@@H](C(=O)N[C@H](CC(C)C)C(=O)N[C@H](CCC(N)=O)C(=O)NCC(=O)N[C@H](CO)C(=O)N[C@H](CCCNC(=N)N)C(=O)N[C@H](CCCNC(=N)N)C(=O)N[C@H](CCCNC(=N)N)C(=O)N[C@H](CCC(N)=O)C(=O)NCC(=O)N[C@H](CCCNC(=N)N)C(N)=O)[C@H](C)O` gave a Kd of 10700 nM (Kcnma1 (Mus musculus, UniProt Q08460); BK current, blocker, inside-out patch; Xenopus oocytes; pH 7.0, 22 °C, 0 mV, together with: 4 µM peptide).
`CC(=O)N[C@@H](CO)C(=O)N[C@@H](Cc1ccccc1)C(=O)N[C@@H](CCC(=O)O)C(=O)N[C@@H](Cc1ccccc1Cl)C(=O)N1CC[C@@H]2C=C[C@H]3CC[C@@H](C(=O)N4CC[C@@H]5C=C[C@H]6CC[C@@H](C(=O)N[C@H](C(=O)N[C@@H](CCC(=O)O)C(=O)N[C@@H](CC(=O)O)C(=O)N[C@@H](CCC(=O)O)C(=O)N[C@@H](CC(C)C)C(N)=O)[C@@H](C)O)N6C(=O)[C@H]54)N3C(=O)[C@H]21` gave a Kd of 300 nM (Vasodilator-stimulated phosphoprotein (VASP, Homo sapiens, UniProt P50552); binding, fluorescence).
The Kd of `O=C(N[C@@H]1c2ccccc2C[C@H]1N1CCCC1)c1ccc(-c2ccnc3[nH]ccc23)nc1` is reported as 1500 nM (NUAK family SNF1-like kinase 1 (NUAK1, Homo sapiens, UniProt O60285); binding, competition with immobilised ligand).
For `CC(C)C[C@H](NC(=O)CNC(=O)[C@@H](NC(=O)[C@@H](NC(=O)CNC(=O)[C@H](CCCNC(=N)N)NC(=O)[C@H](CCC(N)=O)NC(=O)CN)C(C)C)C(C)C)C(=O)N1C[C@H](O)C[C@H]1C(=O)NCC(=O)N[C@@H](CCC(N)=O)C(=O)N[C@@H](CCCNC(=N)N)C(=O)NCC(=O)N[C@@H](CCC(=O)O)C(=O)N[C@@H](CCCNC(=N)N)C(=O)NCC(=O)N[C@@H](Cc1ccccc1)C(=O)N1C[C@H](O)C[C@H]1C(=O)NCC(=O)N[C@@H](CC(C)C)C(=O)N1C[C@H](O)C[C@H]1C(=O)NCC(=O)N1CCC[C@H]1C(=O)N[C@@H](CO)C(=O)NCC(=O)N[C@@H](CCC(=O)O)C(=O)N1C[C@H](O)C[C@H]1C(=O)NCC(=O)N[C@@H](CCCCN)C(=O)N[C@@H](CCC(N)=O)C(=O)NCC(=O)N1CCC[C@H]1C(=O)N[C@@H](CO)C(=O)NCC(=O)N[C@@H](C)C(=O)N[C@@H](CO)C(=O)NCC(=O)N[C@@H](CCC(=O)O)C(=O)N[C@@H](CCCNC(=N)N)C(=O)O`, the Kd was 38000 nM (Fibronectin (FN1, Homo sapiens, UniProt P02751); binding, ITC; pH 7.2).
With `CNCCCC[C@H](NC(=O)[C@H](CCCNC(=N)N)NC(=O)[C@H](C)NC(=O)[C@H](C)NC(=O)[C@H](CCCCN)NC(=O)[C@@H](NC(=O)[C@H](C)NC(=O)[C@H](CC(C)C)NC(=O)[C@@H](N)CCC(N)=O)[C@@H](C)O)C(=O)N[C@@H](CO)C(=O)N[C@@H](C)C(=O)N1CCC[C@H]1C(=O)N[C@@H](C)C(=O)N[C@H](C(=O)NCC(=O)NCC(=O)N[C@H](C(N)=O)C(C)C)[C@@H](C)O` the Kd was 10300 nM (Polycomb protein Sfmbt (Sfmbt, Drosophila melanogaster, UniProt Q9VK33); fluorescence polarization; pH 8.0).
`CC[C@H](C)[C@H](NC(=O)[C@H](CCC(=O)O)NC(=O)[C@H](CCCNC(=N)N)NC(=O)[C@H](C)NC(=O)[C@H](Cc1c[nH]c2ccccc12)NC(=O)[C@H](CCC(N)=O)NC(=O)[C@H](CCC(=O)O)NC(=O)[C@H](CCC(=O)O)NC(=O)[C@H](CCC(=O)O)NC(=O)CNC(=O)[C@H](CCCNC(=N)N)NC(=O)CCCCCNC(=O)CCNC(=S)Nc1ccc2c(c1)C(=O)OC21c2ccc(O)cc2Oc2cc(O)ccc21)C(=O)NCC(=O)N[C@@H](C)C(=O)N[C@@H](CCC(N)=O)C(=O)N[C@@H](CC(C)C)C(=O)N[C@@H](CCCNC(=N)N)C(=O)N[C@@H](CCCNC(=N)N)C(=O)N[C@@H](CCSC)C(=O)N[C@@H](C)C(=O)N[C@@H](CC(=O)O)C(=O)N[C@@H](CC(=O)O)C(=O)N[C@@H](CC(C)C)C(=O)N[C@@H](CC(N)=O)C(=O)O` gave a Kd of 54 nM (Apoptosis regulator Bcl-2 (BCL2, Homo sapiens, UniProt P10415); binding, fluorescence polarization; together with: fluorescein-labelled BH3 peptide).
The Kd of `C(#C[P+](c1ccccc1)(c1ccccc1)c1ccccc1)c1ccccc1` is reported as ~3800 nM (Heat shock 70 kDa protein 1A, ADP-bound (HSPA1A, Homo sapiens, UniProt P0DMV8); ITC; 3% DMSO; pH 5.5, 25 °C, ADP-bound full-length residues 1-641).
With `CC[C@H](C)[C@H](NC(=O)[C@H](CCCCN)NC(=O)[C@H](C)NC(=O)[C@H](CCCNC(=N)N)NC(=O)[C@H](CCCCN)NC(=O)[C@H](CCC(N)=O)NC(=O)[C@H](CCC(N)=O)NC(=O)[C@H](CC(N)=O)NC(=O)[C@@H](NC(=O)[C@H](CC(C)C)NC(=O)[C@H](CC(N)=O)NC(=O)[C@@H]1CCCN1C(=O)[C@H](CC(=O)O)NC(=O)[C@H](CC(C)C)NC(=O)[C@H](C)NC(=O)[C@H](C)NC(=O)[C@H](CCC(=O)O)NC(=O)[C@H](Cc1c[nH]c2ccccc12)NC(=O)[C@H](Cc1ccc(O)cc1)NC(=O)[C@H](CCCNC(=N)N)NC(=O)[C@H](CC(N)=O)NC(=O)[C@H](CCCNC(=N)N)NC(=O)[C@H](CCSC)NC(=O)[C@H](CCC(=O)O)NC(=O)[C@H](CCCCN)NC(=O)[C@H](CO)NC(=O)[C@H](Cc1ccccc1)NC(C)=O)[C@@H](C)O)C(=O)N[C@@H](CCCNC(=N)N)C(=O)N[C@@H](CO)C(=O)N[C@H](C(=O)N[C@@H](Cc1ccc(O)cc1)C(=O)N[C@@H](CCC(=O)O)C(=O)N[C@@H](CCC(=O)O)C(=O)NCC(=O)N[C@@H](CCC(=O)O)C(N)=O)[C@@H](C)CC` the Kd was 5.8 nM (Receptor tyrosine-protein kinase erbB-2 (ERBB2, Homo sapiens, UniProt P04626); binding, SPR).
The Kd of `CC(C)C[C@H](NC(=O)[C@H](CCC(=O)O)NC(=O)[C@@H](N)Cc1ccccc1)C(=O)N[C@@H](CCC(=O)O)C(=O)N[C@@H](CCCNC(=N)N)C(=O)N[C@@H](CCCNC(=N)N)C(=O)N[C@@H](Cc1ccccc1)C(=O)N[C@@H](CCCCN)C(=O)N[C@@H](CCC(N)=O)C(=O)N[C@@H](CCC(N)=O)C(=O)O` is reported as 189 ± 60.5 nM (PDE1C promoter DNA; binding, isothermal titration calorimetry).

A few entries again:
For `CC(C)C[C@H](NC(=O)CNC(=O)[C@@H](NC(=O)[C@@H](NC(=O)CNC(=O)[C@H](CCCNC(=N)N)NC(=O)[C@H](CCC(N)=O)NC(=O)CN)C(C)C)C(C)C)C(=O)N1C[C@H](O)C[C@H]1C(=O)NCC(=O)N[C@@H](CCC(N)=O)C(=O)N[C@@H](CCCNC(=N)N)C(=O)NCC(=O)N[C@@H](CCC(=O)O)C(=O)N[C@@H](CCCNC(=N)N)C(=O)NCC(=O)N[C@@H](Cc1ccccc1)C(=O)N1C[C@H](O)C[C@H]1C(=O)NCC(=O)N[C@@H](CC(C)C)C(=O)N1C[C@H](O)C[C@H]1C(=O)NCC(=O)N1CCC[C@H]1C(=O)N[C@@H](CO)C(=O)NCC(=O)N[C@@H](CCC(=O)O)C(=O)N1C[C@H](O)C[C@H]1C(=O)NCC(=O)N[C@@H](CCCCN)C(=O)N[C@@H](CCC(N)=O)C(=O)NCC(=O)N1CCC[C@H]1C(=O)N[C@@H](CO)C(=O)NCC(=O)N[C@@H](C)C(=O)N[C@@H](CO)C(=O)NCC(=O)N[C@@H](CCC(=O)O)C(=O)N[C@@H](CCCNC(=N)N)C(=O)O`, the Kd was 38000 nM (Fibronectin (FN1, Homo sapiens, UniProt P02751); binding, ITC; pH 7.2).
